Results from different studies.
Every numbered part comes from another study and shows a few of its results, in no order.
Chain of UniProt P00519 (whole entry, unmodified, looked up): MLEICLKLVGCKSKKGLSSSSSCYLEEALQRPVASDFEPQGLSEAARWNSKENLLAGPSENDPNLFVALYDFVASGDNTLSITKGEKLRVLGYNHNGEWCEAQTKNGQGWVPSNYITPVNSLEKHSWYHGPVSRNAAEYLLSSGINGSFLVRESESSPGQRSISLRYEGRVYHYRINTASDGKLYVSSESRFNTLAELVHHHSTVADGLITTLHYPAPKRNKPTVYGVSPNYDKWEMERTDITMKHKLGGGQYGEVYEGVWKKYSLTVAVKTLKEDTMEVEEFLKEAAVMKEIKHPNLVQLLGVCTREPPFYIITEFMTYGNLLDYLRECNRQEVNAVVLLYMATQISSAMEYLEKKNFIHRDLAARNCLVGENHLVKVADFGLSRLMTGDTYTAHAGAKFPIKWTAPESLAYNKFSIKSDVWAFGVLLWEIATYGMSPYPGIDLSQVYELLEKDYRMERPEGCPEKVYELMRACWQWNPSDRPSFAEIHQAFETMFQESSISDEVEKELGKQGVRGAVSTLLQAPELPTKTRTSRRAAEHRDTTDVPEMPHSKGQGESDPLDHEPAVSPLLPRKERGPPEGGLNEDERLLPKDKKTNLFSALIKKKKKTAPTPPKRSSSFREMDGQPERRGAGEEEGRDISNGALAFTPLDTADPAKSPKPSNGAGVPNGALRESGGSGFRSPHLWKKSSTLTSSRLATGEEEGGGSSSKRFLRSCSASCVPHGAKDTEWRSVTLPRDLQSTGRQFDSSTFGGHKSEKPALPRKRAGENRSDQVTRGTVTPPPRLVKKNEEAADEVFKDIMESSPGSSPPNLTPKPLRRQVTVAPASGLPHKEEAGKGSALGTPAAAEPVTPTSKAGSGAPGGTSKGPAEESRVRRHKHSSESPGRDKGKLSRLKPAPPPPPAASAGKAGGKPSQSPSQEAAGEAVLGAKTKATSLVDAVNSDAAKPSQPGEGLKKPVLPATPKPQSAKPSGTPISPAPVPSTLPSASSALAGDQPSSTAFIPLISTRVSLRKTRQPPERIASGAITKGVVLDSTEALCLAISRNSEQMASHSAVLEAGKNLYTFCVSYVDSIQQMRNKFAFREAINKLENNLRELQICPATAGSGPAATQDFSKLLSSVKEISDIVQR
Chain of UniProt P49137 (whole entry, looked up): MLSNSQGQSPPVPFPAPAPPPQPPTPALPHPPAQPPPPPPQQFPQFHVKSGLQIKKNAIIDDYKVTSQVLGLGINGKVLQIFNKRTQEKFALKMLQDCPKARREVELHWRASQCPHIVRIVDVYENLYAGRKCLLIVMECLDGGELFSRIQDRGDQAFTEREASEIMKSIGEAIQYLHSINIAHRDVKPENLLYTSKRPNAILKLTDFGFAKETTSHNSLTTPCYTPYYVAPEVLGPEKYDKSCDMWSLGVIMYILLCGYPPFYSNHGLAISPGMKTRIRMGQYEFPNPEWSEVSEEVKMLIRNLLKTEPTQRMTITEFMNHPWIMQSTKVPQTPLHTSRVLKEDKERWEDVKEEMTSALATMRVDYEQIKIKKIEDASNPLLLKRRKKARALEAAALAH
Chain of UniProt Q12851 (whole entry, looked up): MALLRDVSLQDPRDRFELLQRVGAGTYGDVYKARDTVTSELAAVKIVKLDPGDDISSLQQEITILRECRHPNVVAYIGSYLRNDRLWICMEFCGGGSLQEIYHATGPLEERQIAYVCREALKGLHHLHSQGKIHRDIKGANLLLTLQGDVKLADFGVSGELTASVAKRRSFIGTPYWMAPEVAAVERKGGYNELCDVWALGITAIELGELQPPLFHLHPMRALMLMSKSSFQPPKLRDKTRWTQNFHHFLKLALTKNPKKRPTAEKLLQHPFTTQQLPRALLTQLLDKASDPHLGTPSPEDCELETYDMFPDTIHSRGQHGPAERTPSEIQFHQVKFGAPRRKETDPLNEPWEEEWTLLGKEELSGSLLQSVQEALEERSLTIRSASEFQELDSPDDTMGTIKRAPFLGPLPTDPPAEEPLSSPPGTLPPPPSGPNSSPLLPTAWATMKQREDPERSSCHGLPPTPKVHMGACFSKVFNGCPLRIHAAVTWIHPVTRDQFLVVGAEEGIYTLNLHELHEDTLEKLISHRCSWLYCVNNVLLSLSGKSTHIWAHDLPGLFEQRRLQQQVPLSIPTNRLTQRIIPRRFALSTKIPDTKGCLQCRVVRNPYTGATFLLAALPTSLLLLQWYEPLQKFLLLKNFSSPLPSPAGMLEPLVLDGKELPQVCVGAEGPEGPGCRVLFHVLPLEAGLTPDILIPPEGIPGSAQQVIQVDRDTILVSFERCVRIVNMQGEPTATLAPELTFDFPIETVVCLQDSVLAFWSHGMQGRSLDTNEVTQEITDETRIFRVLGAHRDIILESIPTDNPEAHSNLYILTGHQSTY
Chain of UniProt O75582 (whole entry, looked up): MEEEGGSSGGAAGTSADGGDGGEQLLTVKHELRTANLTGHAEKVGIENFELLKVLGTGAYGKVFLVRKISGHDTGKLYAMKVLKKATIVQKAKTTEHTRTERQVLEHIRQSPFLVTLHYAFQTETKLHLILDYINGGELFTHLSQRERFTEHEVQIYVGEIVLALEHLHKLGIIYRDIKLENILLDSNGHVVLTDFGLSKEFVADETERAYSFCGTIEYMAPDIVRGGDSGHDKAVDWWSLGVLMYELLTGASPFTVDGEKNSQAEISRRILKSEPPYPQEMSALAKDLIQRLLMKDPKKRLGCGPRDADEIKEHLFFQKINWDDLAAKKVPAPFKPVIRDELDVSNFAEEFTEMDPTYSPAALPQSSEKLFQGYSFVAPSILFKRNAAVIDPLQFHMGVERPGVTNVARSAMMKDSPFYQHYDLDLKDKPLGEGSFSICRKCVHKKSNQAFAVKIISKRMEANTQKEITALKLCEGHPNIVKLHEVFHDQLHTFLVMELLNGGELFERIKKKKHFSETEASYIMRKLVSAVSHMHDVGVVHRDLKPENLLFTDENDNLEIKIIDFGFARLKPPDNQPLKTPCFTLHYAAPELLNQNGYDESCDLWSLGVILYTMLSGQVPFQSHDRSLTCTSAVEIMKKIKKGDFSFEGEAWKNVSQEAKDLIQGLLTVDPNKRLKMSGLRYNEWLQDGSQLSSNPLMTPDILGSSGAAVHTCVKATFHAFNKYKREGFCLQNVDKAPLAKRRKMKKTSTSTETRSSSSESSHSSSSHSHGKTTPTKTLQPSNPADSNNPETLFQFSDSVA
Chain of UniProt Q6P2M8 (whole entry, looked up): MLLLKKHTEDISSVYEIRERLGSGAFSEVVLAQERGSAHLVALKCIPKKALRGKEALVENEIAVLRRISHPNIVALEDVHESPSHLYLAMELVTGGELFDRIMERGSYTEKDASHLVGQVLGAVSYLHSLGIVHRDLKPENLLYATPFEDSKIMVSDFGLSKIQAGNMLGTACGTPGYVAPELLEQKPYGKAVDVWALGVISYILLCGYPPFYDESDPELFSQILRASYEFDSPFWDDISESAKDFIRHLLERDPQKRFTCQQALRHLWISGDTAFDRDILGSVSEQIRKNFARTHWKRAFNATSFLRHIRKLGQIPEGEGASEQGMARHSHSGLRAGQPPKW
Chain of UniProt Q8WTQ7 (whole entry, looked up): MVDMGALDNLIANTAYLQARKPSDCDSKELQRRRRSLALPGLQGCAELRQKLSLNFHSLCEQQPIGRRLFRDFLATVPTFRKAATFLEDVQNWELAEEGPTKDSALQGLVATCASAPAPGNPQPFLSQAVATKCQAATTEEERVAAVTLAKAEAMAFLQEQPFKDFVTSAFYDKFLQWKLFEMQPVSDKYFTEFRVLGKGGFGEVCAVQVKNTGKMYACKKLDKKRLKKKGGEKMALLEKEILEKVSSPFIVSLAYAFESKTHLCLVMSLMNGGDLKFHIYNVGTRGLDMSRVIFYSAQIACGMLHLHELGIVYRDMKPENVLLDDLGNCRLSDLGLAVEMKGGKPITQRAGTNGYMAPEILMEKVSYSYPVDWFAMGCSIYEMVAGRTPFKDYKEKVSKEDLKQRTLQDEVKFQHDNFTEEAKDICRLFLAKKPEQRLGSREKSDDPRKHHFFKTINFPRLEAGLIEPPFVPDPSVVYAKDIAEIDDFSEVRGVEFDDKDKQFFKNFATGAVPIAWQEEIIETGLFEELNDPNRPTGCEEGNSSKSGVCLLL
Chain of UniProt Q8TDX7 (whole entry, looked up): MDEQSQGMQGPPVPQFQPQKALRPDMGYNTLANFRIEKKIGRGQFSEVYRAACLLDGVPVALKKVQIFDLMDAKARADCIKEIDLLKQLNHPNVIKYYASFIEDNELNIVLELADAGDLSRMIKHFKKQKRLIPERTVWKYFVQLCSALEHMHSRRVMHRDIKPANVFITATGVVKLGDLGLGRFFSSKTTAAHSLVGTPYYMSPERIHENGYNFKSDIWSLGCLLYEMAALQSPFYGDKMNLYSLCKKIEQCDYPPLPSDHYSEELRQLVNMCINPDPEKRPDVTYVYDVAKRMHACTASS
Chain of UniProt P35626 (whole entry, looked up): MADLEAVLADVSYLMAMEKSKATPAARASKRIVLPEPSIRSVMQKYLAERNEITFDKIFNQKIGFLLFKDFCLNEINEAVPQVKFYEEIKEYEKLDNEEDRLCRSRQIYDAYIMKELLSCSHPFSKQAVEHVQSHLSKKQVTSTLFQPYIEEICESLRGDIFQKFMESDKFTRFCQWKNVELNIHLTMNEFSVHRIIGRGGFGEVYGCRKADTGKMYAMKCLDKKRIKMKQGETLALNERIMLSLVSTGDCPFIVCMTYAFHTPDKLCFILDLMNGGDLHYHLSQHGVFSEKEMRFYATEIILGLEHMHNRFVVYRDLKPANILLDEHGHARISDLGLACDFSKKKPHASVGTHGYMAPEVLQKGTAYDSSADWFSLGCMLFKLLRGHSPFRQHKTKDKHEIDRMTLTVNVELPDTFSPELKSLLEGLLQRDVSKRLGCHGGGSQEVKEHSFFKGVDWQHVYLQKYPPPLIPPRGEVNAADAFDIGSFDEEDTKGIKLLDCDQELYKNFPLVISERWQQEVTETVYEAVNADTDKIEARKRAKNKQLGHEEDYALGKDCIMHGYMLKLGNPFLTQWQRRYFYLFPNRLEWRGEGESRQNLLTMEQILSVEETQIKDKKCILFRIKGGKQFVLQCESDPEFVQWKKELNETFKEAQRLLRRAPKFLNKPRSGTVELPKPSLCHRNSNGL

Block 1
SMILES: COc1cc2nccc(Oc3ccc(NC(=S)NC(=O)c4ccccc4C)cc3)c2cc1OC
Effect on: enzyme activity
Mode: inhibitor
Tested at: 0.5 µM
Relative to: control
target	remaining activity
LCK (Homo sapiens, UniProt P06239)	1.62%
MAP3K14 (Homo sapiens, UniProt Q99558)	106%
JAK3 (Homo sapiens, UniProt P52333)	96.6%
WEE1 (Homo sapiens, UniProt P30291)	89.6%
CSNK1G3 (Homo sapiens, UniProt Q9Y6M4)	93.3%
MAP3K5 (Homo sapiens, UniProt Q99683)	106%
MERTK (Homo sapiens, UniProt Q12866)	32.3%
FGFR1 (Homo sapiens, UniProt P11362)	75.7%
CSNK1G2 (Homo sapiens, UniProt P78368)	106%
GRK7 (Homo sapiens, UniProt Q8WTQ7)	95.6%
NEK6 (Homo sapiens, UniProt Q9HC98)	92.4%
TEK (Homo sapiens, UniProt Q02763)	90.1%
ULK3 (Homo sapiens, UniProt Q6PHR2)	86.8%
MAPK3 (Homo sapiens, UniProt P27361)	106%
MAPKAPK2 (Homo sapiens, UniProt P49137)	98%
ABL2 (Homo sapiens, UniProt P42684)	74.1%
TBK1 (Homo sapiens, UniProt Q9UHD2)	103%
GSK3B (Homo sapiens, UniProt P49841)	97.7%
MST1R (Homo sapiens, UniProt Q04912)	88.8%
MAP2K2 (Homo sapiens, UniProt P36507)	79.4%
FRK (Homo sapiens, UniProt P42685)	27.5%
TAOK2 (Homo sapiens, UniProt Q9UL54)	91.9%

Block 2
Structure (SMILES): O=C(Nc1cnn(-c2csc(C(=O)NC3COC3)c2)c1)Nc1ccccc1Cl
Effect on: enzyme activity
Tested at: 5 µM
Relative to: untreated control
target	remaining activity [%]
GRK3 (Homo sapiens, UniProt P35626)	102
NEK7 (Homo sapiens, UniProt Q8TDX7)	101
STK11 (Homo sapiens, UniProt Q15831)	115
PRKCZ (Homo sapiens, UniProt Q05513)	102
VRK1 (Homo sapiens, UniProt Q99986)	98.1

Block 3
Compound: C[C@@H]1CN(c2cc(-c3n[nH]c4ccc(OC5(C)CC5)cc34)ncn2)C[C@H](C)O1
Technique: competition with immobilised ligand
Tested at: 0.1 µM
target	test	remaining binding
MELK (Homo sapiens, UniProt Q14680)	cell-free assay	88%
Tyrosine-protein kinase ABL1, non-phosphorylated (ABL1, Homo sapiens, UniProt P00519, F317L)	cell-free assay	73%
Tyrosine-protein kinase JAK1, JH1 (JAK1, Homo sapiens, UniProt P23458)	cell-free assay	88%
PRKACA (Homo sapiens, UniProt P17612)	cell-free assay	85%
MAP3K11 (Homo sapiens, UniProt Q16584)	cell-free assay	100%
CAMKK1 (Homo sapiens, UniProt Q8N5S9)	cell-free assay	100%
GRK2 (Homo sapiens, UniProt P25098)	cell-free assay	86%
HIPK3 (Homo sapiens, UniProt Q9H422)	cell-free assay	73%
MYLK (Homo sapiens, UniProt Q15746)	cell-free assay	56%
ERBB3 (Homo sapiens, UniProt P21860)	cell-free assay	100%
Non-receptor tyrosine-protein kinase TYK2, JH2 (TYK2, Homo sapiens, UniProt P29597)	cell-free assay	76%
CLK2 (Homo sapiens, UniProt P49760)	cell-free assay	85%
DMPK (Homo sapiens, UniProt Q09013)	cell-free assay	85%
MAP4K2 (Homo sapiens, UniProt Q12851)	cell-free assay	76%
CAMK2B (Homo sapiens, UniProt Q13554)	cell-free assay	100%
MAP4K1 (Homo sapiens, UniProt Q92918)	cell-free assay	84%
Tyrosine-protein kinase ABL1, phosphorylated (ABL1, Homo sapiens, UniProt P00519, E255K)	binding	66%
MAPKAPK2 (Homo sapiens, UniProt P49137)	cell-free assay	96%
FLT3 (Homo sapiens, UniProt P36888, D835V)	cell-free assay	73%
STK38L (Homo sapiens, UniProt Q9Y2H1)	cell-free assay	85%
Ribosomal protein S6 kinase alpha-5, C-terminal kinase domain (RPS6KA5, Homo sapiens, UniProt O75582)	cell-free assay	89%
STK24 (Homo sapiens, UniProt Q9Y6E0)	cell-free assay	96%
PIK3CD (Homo sapiens, UniProt O00329)	cell-free assay	68%
PNCK (Homo sapiens, UniProt Q6P2M8)	cell-free assay	67%
GRK1 (Homo sapiens, UniProt Q15835)	cell-free assay	83%

Block 4
Structure (SMILES): COc1ccc(-c2c(Nc3ccccn3)[nH]c3c(C4=CCCCC4)c(-c4ccccc4)nn3c2=O)cc1
Medium: plasma
Route: oral
test	system	conditions	plasma concentration, geometric mean [µg/mL]
LC-MS/MS	human	50 mg once daily, 6 h, cycle 1	1.6
	human patients	100 mg once daily, 24 h, cycle 1	2.31
	human patients	100 mg once daily, 4 h, cycle 1	3.07
	cancer patients	50 mg, 2 h post-dose, single dose	0.227
	cancer patients	150 mg, 3 h post-dose, single dose	1.37
	cancer patients	50 mg, 4 h post-dose, single dose	0.476
	human patients	200 mg once daily, 2 h, cycle 1	5.21
LC-MS/MS	human	200 mg twice daily, 24 h	12

A few entries again (block 2):
target	remaining activity [%]
GRK3 (Homo sapiens, UniProt P35626)	102
NEK7 (Homo sapiens, UniProt Q8TDX7)	101
STK11 (Homo sapiens, UniProt Q15831)	115
PRKCZ (Homo sapiens, UniProt Q05513)	102
VRK1 (Homo sapiens, UniProt Q99986)	98.1
